Published values gathered from unrelated publications.
Compare with care: the assays were run in different laboratories. ± gives the spread as reported.
Organism: Trypanosoma brucei

CN1CCC(n2cnc(-c3ccc(F)cc3)c2-c2ccnc(N)n2)CC1
selectivity (unit not given; baseline: pEC50 T. brucei minus pTC50 HepG2): > 2

COc1cc(NC(=O)c2ccc(C#N)cc2)ccc1S(N)(=O)=O
IC50 (cell viability, MTS; Lister 427; 48 h): < 5 µM

Cc1ccc(Cn2cc(C(=O)NN)c(=O)c3cc(Oc4ccccc4)ccc32)cc1
EC50 (parasite growth; Squib 427): 500 nM

COc1ccc(Nc2cnnc3ccc(-c4cnc(N5CCN(C)CC5)nc4)cc23)cc1Cl
EC50 (cell growth): 810 ± 180 nM

COc1cc(Nc2ncc3c(C)nc(-c4cccc(Oc5ccccc5)c4)n3n2)cc(OC)c1OC
selectivity (unit not given; baseline: pEC50 T. brucei minus pTC50 HepG2): > 2.1

Cc1ccc(Nc2cnnc3cc(-c4ccc(N5CCN(C)CC5)cc4)ccc23)cn1
EC50 (cell growth): 2600 ± 930 nM

COc1cc(NC(=O)c2ccc(OC(F)(F)F)cc2)ccc1S(N)(=O)=O
IC50 (cell viability, MTS; Lister 427; 48 h): > 20 µM

CN(C)CCNC(=O)c1cccn2c(=O)c3cc4ccccc4cc3nc12
differentially expressed G4-containing genes (RNA-seq; Lister 427 bloodstream form; 2 × EC50, 4 h, ChIP-seq G4 peak overlap): 10 genes

CN1CCC(C(=O)Nc2n[nH]c3nc(-c4ccc(O)cc4)c(Br)cc23)CC1
selectivity (unit not given; baseline: pEC50 T. brucei minus pTC50 HepG2): > 2.6

COc1ccc(Nc2cnnc3ccc(-c4ccc(N5CCN(C)CC5)cc4)cc23)nc1
EC50 (cell growth): 1300 ± 290 nM

Nc1nccc(C#Cc2cncnc2Nc2ccc(OCc3cccc(F)c3)c(Cl)c2)n1
selectivity (unit not given; baseline: pEC50 T. brucei minus pTC50 HepG2): 1.1

CN1CCN(c2ccc(-c3ccc4nncc(Nc5cnccn5)c4c3)cc2)CC1
EC50 (cell growth): 460 ± 40 nM

Nc1ncnc2occ(-c3ccc(NC(=O)Nc4cc(C(F)(F)F)cc(C(F)(F)F)c4)cc3)c12
selectivity (unit not given; baseline: pEC50 T. brucei minus pTC50 HepG2): 0.3

COc1ccc(Nc2cnnc3cc(-c4cnc(N5CCCN(C)CC5)nc4)ccc23)nc1
EC50 (cell growth): 3300 ± 1300 nM

COc1ccc2[nH]c3c4[nH]c5ccc(OC)cc5c4c4c(c3c2c1)C(=O)NC4=O
selectivity (unit not given; baseline: pEC50 T. brucei minus pTC50 HepG2): 0.8

COc1ccc(Nc2cnnc3ccc(-c4ccc(N5CCN(C)CC5)cc4)cc23)cc1Cl
EC50 (cell growth): 200 ± 90 nM

O=C1Nc2ccc(C(=O)c3ccco3)cc2C1=Cc1cc(Cl)c(O)c(Cl)c1
selectivity (unit not given; baseline: pEC50 T. brucei minus pTC50 HepG2): 1.5

Cc1cnc(CNC(=O)c2c(=O)c3ccc(N4CCCN(C)CC4)nc3n3c2sc2ccccc23)cn1
differentially expressed G4-containing genes (RNA-seq; Lister 427 bloodstream form; 2 x EC50, 4 h, overlap, with peaks, G4 ChIP-seq; baseline: untreated): 10 genes

CN1CCN(c2ccc(-c3ccc4c(Nc5cnccn5)cnnc4c3)cc2)CC1
EC50 (cell growth): 9900 ± 3200 nM

C[n+]1cc(NC(=O)c2ccc3ccc4ccc(C(=O)Nc5cc6ccccc6[n+](C)c5)nc4c3n2)cc2ccccc21
upregulated genes (RNA-seq; Lister 427 bloodstream form; 2 × EC50, 4 h, log2 FC 1, FDR 0.05; baseline: untreated): 139 genes

COc1cc(NC(=O)c2ccc([N+](=O)[O-])cc2)ccc1S(N)(=O)=O
IC50 (cell viability, MTS; Lister 427; 48 h): < 5 µM

Repeated from above:
COc1ccc(Nc2cnnc3ccc(-c4cnc(N5CCN(C)CC5)nc4)cc23)cc1Cl
EC50 (cell growth): 810 ± 180 nM
